Published values gathered from unrelated publications.
“And” joins repeats or separate records; there may be more than shown. Numbers after ± are the reported error.
uncharacterized protein: uncharacterized protein (Spodoptera exigua, UniProt F1CEY0)
EPHA2: Ephrin type-A receptor 2 (EPHA2, Homo sapiens, UniProt P29317)
Chain of UniProt P51575 (whole entry, unmodified, looked up): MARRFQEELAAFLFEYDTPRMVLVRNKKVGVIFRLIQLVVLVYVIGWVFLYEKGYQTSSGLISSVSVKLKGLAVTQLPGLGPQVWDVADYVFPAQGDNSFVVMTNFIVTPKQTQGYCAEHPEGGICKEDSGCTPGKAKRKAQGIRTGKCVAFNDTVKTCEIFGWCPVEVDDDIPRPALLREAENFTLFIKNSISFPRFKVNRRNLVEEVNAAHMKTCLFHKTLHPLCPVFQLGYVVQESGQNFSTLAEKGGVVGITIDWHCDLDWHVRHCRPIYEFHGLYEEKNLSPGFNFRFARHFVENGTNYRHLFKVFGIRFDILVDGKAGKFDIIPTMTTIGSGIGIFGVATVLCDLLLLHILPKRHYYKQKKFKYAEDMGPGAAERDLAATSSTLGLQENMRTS
Chain of UniProt P11388 (whole entry, looked up): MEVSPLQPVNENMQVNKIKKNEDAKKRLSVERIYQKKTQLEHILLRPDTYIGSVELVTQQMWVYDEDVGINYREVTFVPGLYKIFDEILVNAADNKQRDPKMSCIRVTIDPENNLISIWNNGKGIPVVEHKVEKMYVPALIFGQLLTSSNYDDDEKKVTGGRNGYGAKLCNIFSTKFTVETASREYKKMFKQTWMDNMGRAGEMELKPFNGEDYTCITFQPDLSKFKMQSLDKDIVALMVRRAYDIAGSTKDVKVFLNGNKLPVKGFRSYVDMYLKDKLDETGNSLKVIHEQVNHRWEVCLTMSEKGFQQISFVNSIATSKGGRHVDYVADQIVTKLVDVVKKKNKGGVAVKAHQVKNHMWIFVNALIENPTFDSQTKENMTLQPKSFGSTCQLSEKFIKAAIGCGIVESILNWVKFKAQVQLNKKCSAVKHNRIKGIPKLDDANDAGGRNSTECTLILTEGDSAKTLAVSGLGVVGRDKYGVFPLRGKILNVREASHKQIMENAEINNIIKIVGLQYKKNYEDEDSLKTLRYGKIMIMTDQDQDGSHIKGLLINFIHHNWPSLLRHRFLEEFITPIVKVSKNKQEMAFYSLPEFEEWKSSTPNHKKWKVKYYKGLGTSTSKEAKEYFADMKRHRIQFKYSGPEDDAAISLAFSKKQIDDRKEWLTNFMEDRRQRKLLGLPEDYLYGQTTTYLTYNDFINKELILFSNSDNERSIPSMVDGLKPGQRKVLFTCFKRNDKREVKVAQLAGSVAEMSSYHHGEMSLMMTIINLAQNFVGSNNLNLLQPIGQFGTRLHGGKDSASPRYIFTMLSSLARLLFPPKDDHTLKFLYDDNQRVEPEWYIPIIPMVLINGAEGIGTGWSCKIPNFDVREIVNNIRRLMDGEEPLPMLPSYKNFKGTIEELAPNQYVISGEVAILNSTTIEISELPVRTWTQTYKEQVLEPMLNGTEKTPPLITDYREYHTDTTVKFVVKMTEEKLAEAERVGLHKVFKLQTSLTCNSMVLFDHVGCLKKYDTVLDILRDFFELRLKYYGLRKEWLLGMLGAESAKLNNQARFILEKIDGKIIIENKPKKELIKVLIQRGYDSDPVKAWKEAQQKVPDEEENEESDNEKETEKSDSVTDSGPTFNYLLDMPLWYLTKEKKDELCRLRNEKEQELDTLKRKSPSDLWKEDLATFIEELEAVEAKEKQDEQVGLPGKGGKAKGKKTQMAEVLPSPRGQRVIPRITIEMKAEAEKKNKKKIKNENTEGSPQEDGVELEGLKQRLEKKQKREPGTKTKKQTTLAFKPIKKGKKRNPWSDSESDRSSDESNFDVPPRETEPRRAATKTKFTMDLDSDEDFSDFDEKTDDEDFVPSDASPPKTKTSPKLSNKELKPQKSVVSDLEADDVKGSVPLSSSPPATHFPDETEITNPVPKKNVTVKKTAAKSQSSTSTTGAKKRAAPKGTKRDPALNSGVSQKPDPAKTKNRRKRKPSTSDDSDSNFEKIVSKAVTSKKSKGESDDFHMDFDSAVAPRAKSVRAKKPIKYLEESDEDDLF
Chain of UniProt P29317 (whole entry, looked up): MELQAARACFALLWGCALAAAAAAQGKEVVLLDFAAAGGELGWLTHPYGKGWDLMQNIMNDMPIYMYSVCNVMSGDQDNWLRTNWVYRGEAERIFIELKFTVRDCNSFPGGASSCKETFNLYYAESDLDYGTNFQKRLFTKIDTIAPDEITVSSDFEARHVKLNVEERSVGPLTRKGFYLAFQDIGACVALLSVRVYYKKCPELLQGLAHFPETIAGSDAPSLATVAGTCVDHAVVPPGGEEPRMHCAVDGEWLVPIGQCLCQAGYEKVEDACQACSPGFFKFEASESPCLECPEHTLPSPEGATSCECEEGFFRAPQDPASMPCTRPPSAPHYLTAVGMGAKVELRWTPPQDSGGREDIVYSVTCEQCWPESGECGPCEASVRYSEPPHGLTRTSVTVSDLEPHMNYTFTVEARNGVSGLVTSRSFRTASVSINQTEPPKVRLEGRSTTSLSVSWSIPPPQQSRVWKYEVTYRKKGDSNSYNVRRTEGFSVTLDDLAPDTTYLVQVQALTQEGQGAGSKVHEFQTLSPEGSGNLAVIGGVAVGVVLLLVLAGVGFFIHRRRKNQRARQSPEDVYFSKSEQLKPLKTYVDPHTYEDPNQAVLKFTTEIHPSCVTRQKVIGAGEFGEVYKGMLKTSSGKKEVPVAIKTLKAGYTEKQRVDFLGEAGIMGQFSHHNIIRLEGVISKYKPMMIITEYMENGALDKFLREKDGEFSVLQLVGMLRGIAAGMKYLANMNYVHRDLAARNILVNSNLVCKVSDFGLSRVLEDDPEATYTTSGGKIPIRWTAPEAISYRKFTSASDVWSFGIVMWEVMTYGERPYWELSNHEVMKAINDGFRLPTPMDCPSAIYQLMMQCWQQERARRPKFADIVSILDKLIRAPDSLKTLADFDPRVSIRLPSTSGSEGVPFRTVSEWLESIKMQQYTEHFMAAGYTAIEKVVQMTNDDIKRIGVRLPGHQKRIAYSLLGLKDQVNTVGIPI
Chain of UniProt Q9HCF6 (whole entry, looked up): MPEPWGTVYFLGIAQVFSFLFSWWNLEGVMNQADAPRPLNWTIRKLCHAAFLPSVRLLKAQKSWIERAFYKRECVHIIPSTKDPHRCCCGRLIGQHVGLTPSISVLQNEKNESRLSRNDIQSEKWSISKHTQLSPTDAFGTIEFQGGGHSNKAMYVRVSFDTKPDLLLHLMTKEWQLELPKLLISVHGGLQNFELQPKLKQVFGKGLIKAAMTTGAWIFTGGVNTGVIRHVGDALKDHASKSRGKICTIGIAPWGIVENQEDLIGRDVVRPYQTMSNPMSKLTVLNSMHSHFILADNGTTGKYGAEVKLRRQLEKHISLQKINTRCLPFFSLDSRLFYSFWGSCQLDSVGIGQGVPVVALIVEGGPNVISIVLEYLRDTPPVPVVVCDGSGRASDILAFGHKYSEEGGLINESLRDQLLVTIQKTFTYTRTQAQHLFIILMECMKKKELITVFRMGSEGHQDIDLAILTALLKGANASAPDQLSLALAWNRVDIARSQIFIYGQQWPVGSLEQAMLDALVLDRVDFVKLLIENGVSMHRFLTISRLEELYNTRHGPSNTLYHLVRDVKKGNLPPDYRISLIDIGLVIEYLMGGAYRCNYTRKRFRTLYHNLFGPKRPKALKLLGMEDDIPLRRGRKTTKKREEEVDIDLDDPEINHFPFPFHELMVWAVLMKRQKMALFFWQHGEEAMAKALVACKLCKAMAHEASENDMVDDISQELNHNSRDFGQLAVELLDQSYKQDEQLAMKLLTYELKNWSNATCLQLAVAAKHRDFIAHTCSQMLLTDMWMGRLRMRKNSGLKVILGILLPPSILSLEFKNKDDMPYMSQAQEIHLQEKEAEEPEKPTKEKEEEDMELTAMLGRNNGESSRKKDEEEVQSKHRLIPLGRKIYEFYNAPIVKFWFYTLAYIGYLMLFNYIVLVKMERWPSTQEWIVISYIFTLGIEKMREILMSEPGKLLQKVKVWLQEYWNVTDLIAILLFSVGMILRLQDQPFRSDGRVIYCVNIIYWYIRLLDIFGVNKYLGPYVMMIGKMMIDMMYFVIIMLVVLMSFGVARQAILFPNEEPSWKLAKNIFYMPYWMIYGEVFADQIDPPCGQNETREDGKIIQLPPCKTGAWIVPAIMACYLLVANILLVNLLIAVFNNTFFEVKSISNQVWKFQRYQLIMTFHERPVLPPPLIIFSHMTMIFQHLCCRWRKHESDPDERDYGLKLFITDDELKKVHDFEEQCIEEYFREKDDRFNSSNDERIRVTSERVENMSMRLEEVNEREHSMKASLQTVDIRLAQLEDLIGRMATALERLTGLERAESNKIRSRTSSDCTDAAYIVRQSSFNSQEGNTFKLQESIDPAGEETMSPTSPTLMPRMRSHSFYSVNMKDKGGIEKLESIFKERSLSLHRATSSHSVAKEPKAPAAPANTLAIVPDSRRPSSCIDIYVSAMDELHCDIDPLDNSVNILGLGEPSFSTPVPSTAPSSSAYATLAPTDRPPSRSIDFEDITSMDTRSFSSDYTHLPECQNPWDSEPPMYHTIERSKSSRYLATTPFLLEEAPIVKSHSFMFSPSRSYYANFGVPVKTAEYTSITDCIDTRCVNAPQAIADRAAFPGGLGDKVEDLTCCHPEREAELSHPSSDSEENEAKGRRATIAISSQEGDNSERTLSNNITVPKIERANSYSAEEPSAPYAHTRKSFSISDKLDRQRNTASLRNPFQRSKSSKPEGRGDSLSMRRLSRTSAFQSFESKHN
Chain of UniProt P00441 (whole entry, unmodified, looked up): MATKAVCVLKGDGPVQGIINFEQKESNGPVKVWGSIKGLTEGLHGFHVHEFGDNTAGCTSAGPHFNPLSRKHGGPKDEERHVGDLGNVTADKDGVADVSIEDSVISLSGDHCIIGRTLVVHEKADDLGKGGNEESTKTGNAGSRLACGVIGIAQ

SMILES	target	assay	system	setting	scale	measurement	result
[O-][S+]1CCCCS1 (stereo not drawn)	SOD1 (Homo sapiens, UniProt P00441, G94A)	LC-MS	human whole blood	500 µM, 1 h, 37 °C	–	SOD1 monomer fraction	41%
Nc1nc2c(ncn2[C@@H]2O[C@H](COP(=O)(O)OP(=O)(O)O[C@H]3O[C@H](CO)[C@@H](O)[C@H](O)[C@@H]3O)[C@@H](O)[C@H]2O)c(=O)[nH]1	Bacillus thuringiensis ThuS	substrate	–	sugar donor	–	Km	< 10 µM
CC1CCC(C(C)C)C(O)C1 (stereo not drawn)	uncharacterized protein	binding, competitor, fluorescence displacement	–	20 µM, pH 7.4, together with: 1-NPN 20 µM	baseline: 1-NPN alone	relative fluorescence	78.1%
Clc1ccccc1C(c1ccccc1)(c1ccccc1)n1ccnc1	TRPM3 (Homo sapiens, UniProt Q9HCF6)	whole-cell patch clamp	HEK-293T expressing hTRPM3-YFP	10 µM, at +80 mV, not DTT-treated, together with: pregnenolone sulfate 40 µM	–	current density	-0.52 ± 0.2 pA/pF
CC1=C[C@H](O)[C@H]2C[C@@H]1C2(C)C	uncharacterized protein	binding, 1-NPN competitive displacement	–	protein 2.0 µM, together with: 1-NPN 20 µM	baseline: 1-NPN without compound, lower = stronger binding	relative fluorescence	79.2%
O=c1nc(SCc2cc(F)cc(C(F)(F)F)c2)nc(SCc2ccc3sccc3c2)[nH]1	TOP2A (Homo sapiens, UniProt P11388)	ATPase activity	–	7.8 µM, together with: ATP 0.025 mM	–	ATP hydrolysis rate	0.322 µM/min and 0.425 µM/min
C#Cc1c(F)ccc2cc(O)cc(-c3ncc4c(N5CC6CCC(C5)N6)nc(OC[C@@]56CCCN5C[C@H](F)C6)nc4c3F)c12	GTPase KRas, GDP-bound (KRAS, Homo sapiens, UniProt P01116, G13D)	SPR	–	–	–	dissociation rate constant koff	0.000375 ± 7.7e-05 s⁻¹
OC[C@H]1OC(O)[C@H](O)[C@@H](O)[C@@H]1O (stereo partly drawn)	Hexokinase-3 (HK3, Homo sapiens, UniProt P52790, N221A)	substrate inhibition	–	mutant N221A, complete substrate inhibition model, together with: ATP 20 mM	–	kcat	38 ± 23 s⁻¹
Nc1ncnc2c1ncn2[C@@H]1O[C@H](COP(=O)(O)OP(=O)(O)OP(=O)(O)O)[C@@H](O)[C@H]1O	CKMT1A (Homo sapiens, UniProt P12532, H99A)	substrate, ADP-Glo luminescence	–	pH 8.5, forward reaction, H61A mutant, together with: second substrate in excess	–	kcat	6 ± 2 s⁻¹
Cc1occc(=O)c1[O-].[Cl-].[W+4].c1cc[cH-]c1.c1cc[cH-]c1	Albumin (ALB, Homo sapiens, UniProt P02768)	binding, fluorescence quenching	–	317 K	–	Gibbs free energy change	-6.11 kcal/mol
NCCCCC(=O)O	SLC6A6 (Homo sapiens, UniProt P31641, Y138A)	binding, microscale thermophoresis	–	62.5 µM, room temperature, together with: 50 nM labelled protein	higher = more binding	normalised MST signal	-0.055
Nc1ncnc2c1ncn2[C@@H]1O[C@H](COP(=O)(O)CP(=O)(O)OP(=O)(O)O)[C@@H](O)[C@H]1O	P2X purinoceptor 1 (P2RX1, Homo sapiens, UniProt P51575, R292A)	calcium influx	–	100 nM	baseline: ionomycin response	calcium influx	0% and 0.0613% and 0.208% and 0.271%
N[C@H](CNC(=O)c1cc(Br)c(-c2ccccc2F)s1)C(=O)O	Glutamate receptor ionotropic, NMDA 1, with GluN2C (Grin1, Rattus norvegicus, UniProt P35439, V689I)	receptor activation	rat	together with: glutamate 300 µM	–	log EC50	-1.88 µM
CC[C@@H]1[C@H](F)C(=O)N[C@@H]1COc1nccc2cc(C(N)=O)c(OC)cc12	EPHA2	ATP probe binding, KiNativ profiling, item: activation loop probe site	THP-1 cell lysate	0.01 mM	–	inhibition	-12.3%
C=CC(=O)N1CCC[C@@H](n2nc(-c3ccc(Oc4ccccc4)cc3)c3c(N)ncnc32)C1	EPHA2	–	–	10 µM	–	remaining activity	141%

Repeated from above:
SMILES	target	assay	system	setting	scale	measurement	result
Nc1ncnc2c1ncn2[C@@H]1O[C@H](COP(=O)(O)CP(=O)(O)OP(=O)(O)O)[C@@H](O)[C@H]1O	P2X purinoceptor 1 (P2RX1, Homo sapiens, UniProt P51575, R292A)	calcium influx	–	100 nM	baseline: ionomycin response	calcium influx	0% and 0.0613% and 0.208% and 0.271%
N[C@H](CNC(=O)c1cc(Br)c(-c2ccccc2F)s1)C(=O)O	Glutamate receptor ionotropic, NMDA 1, with GluN2C (Grin1, Rattus norvegicus, UniProt P35439, V689I)	receptor activation	rat	together with: glutamate 300 µM	–	log EC50	-1.88 µM
